# Published values pooled from the literature.
# Every numbered part comes from another study and shows a few of its results, in no order. Substitutions count along the parent as printed.

# Study 1 — technique: protein binding microarray; form: double-stranded DNA, one strand shown; matrix: in vitro; tested at: not given; reference: not given; direction: higher = stronger binding
# Target: Histone acetyltransferase KAT6A, both winged helices, GST fusion (KAT6A, Homo sapiens, UniProt Q92794, residues 1-181)
# Notes: 8-mer, flanks averaged, mean of 2 arrays, mostly near background
# Residues (chain): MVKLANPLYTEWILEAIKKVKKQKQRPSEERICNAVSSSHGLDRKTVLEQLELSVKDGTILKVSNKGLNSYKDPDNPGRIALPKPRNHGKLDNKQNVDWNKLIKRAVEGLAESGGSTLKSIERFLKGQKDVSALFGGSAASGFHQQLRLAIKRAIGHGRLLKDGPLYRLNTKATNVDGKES
Oligonucleotide,E-score
GAGTACTA,-0.0658
AAGGCACC,-0.0128
CTCATGGC,-0.0258
ATCAAGTA,-0.0592
CGAGCGAC,0.0651
CTTAAAGC,-0.108
CTCTAAAC,0.00564
CGAGTAGC,0.247
AGAGAAAC,-0.0456
AGAGATCC,-0.174
CAAGATTC,-0.145
GAAATTAA,-0.0132
ACCCGTGC,0.225
AAAGTGGG,-0.13
GTACGACA,-0.142
CCGTGATC,0.201
GATCTGCC,-0.0146
CTGGTGGC,-0.222
GAGAGTAA,-0.162
ACAGCCCA,-0.184
ATAAGTGG,-0.0499
CCGATAGA,0.0679
AGCGAACC,-0.00615
CAACACGC,0.0623
AACTGAGA,-0.152

# Study 2 — technique: protein-binding microarray; form: double-stranded DNA, one strand shown; matrix: in vitro; tested at: 940 nM top; notes: 60-bp whole probe; together with: salmon DNA 0.4 mg/ml; reference: random background probes; direction: higher = stronger binding; constant ends, left off below: GCCTAGCAC … GTCTTGATTCGCTTGACGCTGCTG
# Target: Interferon regulatory factor 5, full length, phosphomimetic (IRF5, Homo sapiens, UniProt Q13568-2, residues 1-514, S451D/S453D/S456D/S462D)
Oligonucleotide,fitted relative affinity
GACGATTCCTGTTTCGAGACGTGCTAG,1.95 z-score
TTAGGTTGCCTTATCCTTTAGTGCTAG,0.0207 z-score
GTAGGACTGGGGTTTCGGTTAGTGCTA,5.38 z-score
GACGAACTGAGTTACGAGACGTGCTAG,-0.534 z-score
TACGGTTTCGGTCTCGGGACGTGCTAG,13 z-score
GACGGTCTCGCTTTCGGGACGTGCTAG,2.28 z-score
TTAGATTTCCTTATCCTTTAGTGCTAG,0.719 z-score
CATAGAGATGCCTGTCCTCTGTGCTAG,-0.639 z-score
TTAGATATTGGGACTGGATTAGTGCTA,0.0679 z-score
TTAGATATCGGTCTCGATTAGTGCTAG,2.61 z-score
TTAGGAATGCTTCTCCTTTAGTGCTAG,-0.0198 z-score
TAGCTTCCATTTTCTGAACGTGTGCTA,0.461 z-score
ACACTTTCCCCTTCCTAGTTGTGCTAG,2.42 z-score
TCAAGCATGGATCTGGGACTGTGCTAG,-0.829 z-score
AACCATTTTGGTTTTCCTTAGTGCTAG,0.782 z-score
TTAGATTTCGGGTATCTATTAGTGCTA,1.74 z-score
TTAGATATCGTGACTGGATTAGTGCTA,-0.364 z-score
TCATTTTTTTTTTTTGTACTGTGCTAG,1.09 z-score
TTAGATTTCAGTTCCGATTGGTGCTAG,1.84 z-score

# Study 3 — technique: aptamer microarray, sandwich; form: DNA with 2'F-ANA; matrix: in vitro; tested at: 200 nM; together with: Cy3 exosite-II aptamer, 400 nM; direction: higher = stronger binding; oligonucleotide: GGTTGGTGTGGTTGG
# Target: Prothrombin, mature alpha-thrombin (F2, Homo sapiens, UniProt P00734)
# Notes: whole 15-mer aptamer, many near background
Modification,mean fluorescence intensity [a.u.]
2'F-ANA at 2 3 5 7 8 9 13 14,66.1
2'F-ANA at 2 3 4 6 8 10 12 13 14 15,147
2'F-ANA at 2 4 6 7 8 14,134
2'F-ANA at 1 5 7 8 9 11 12 13 14,52.4
2'F-ANA at 1 5 7 9 10 11 12 15,46.8
2'F-ANA at 1 6 7 8 10 13 15,52.5
2'F-ANA at 3 4 7 8 11 12 14 15,495
2'F-ANA at 4 5 9 10 12 13 14 15,45.6
2'F-ANA at 2 3 6 7 10 12 14,319
2'F-ANA at 1 2 3 4 5 8 9 10 15,56.6
2'F-ANA at 1 4 7 8 9 11 12 14 15,62.7
2'F-ANA at 1 2 3 4 5 6 7 8 9 11,57.4
2'F-ANA at 2 5 6 10 11 13 15,49.8
2'F-ANA at 1 3 6 10 12 13 14 15,60.5
2'F-ANA at 1 4 11 14 15,55.4
2'F-ANA at 2 4 6 9 10,91.1
2'F-ANA at 1 3 7 14,97.8
2'F-ANA at 1 2 4 5 6 7 9 10 13 14 15,52.7
2'F-ANA at 6 7 12 13 14,207
2'F-ANA at 1 5 6 9 10 11 14,47.2
2'F-ANA at 1 2 4 6 9 10 12 14 15,49.3
2'F-ANA at 3 4 6 11 12 14,356
2'F-ANA at 1 5 6 7 8 9 11 12 13 14,47.5
2'F-ANA at 3 5 8 9 10 11 13 14 15,53.6

# Study 4 — target: CCNB1, cyclin fold, Cln2 fusion (human); technique: yeast growth competition, sequencing; matrix: yeast; notes: strong parent motif; reference: not given; direction: higher = stronger binding
# Starting sequence: MASTL docking peptide (human); PMIAKNLMCELDE; partner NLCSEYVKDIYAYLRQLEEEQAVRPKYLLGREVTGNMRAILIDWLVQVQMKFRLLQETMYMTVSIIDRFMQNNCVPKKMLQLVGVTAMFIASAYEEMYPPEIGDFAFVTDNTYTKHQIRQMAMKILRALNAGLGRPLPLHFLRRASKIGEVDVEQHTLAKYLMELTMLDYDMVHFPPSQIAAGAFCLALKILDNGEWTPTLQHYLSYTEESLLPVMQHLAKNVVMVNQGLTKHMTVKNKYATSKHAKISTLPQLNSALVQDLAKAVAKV
Substitution,normalised enrichment score
PMIAKNLFCELDE [M8F],1.46
PMIASNLMCELDE [K5S],-0.292
PMIAKWLMCELDE [N6W],-0.103
PMIAKNLMCETDE [L11T],-0.28
PTIAKNLMCELDE [M2T],2.28
PMWAKNLMCELDE [I3W],0.429
PMIAKNLHCELDE [M8H],0.104
PMIAKNLMCELSE [D12S],1.36
PMIAKNLMCGLDE [E10G],0.0867
PMIAKNLMCDLDE [E10D],1.55
PMIAKNGMCELDE [L7G],-0.374
PQIAKNLMCELDE [M2Q],2.36
PWIAKNLMCELDE [M2W],1.69
PMCAKNLMCELDE [I3C],0.929
PMIAKNLMCELME [D12M],1.15
PMIAKNLMRELDE [C9R],2.22
PHIAKNLMCELDE [M2H],1.96
PMPAKNLMCELDE [I3P],0.369
PMIAKNPMCELDE [L7P],0.079
PMIAKNTMCELDE [L7T],-0.456

# Excerpt of the above (study 3):
Modification,mean fluorescence intensity [a.u.]
2'F-ANA at 1 2 3 4 5 8 9 10 15,56.6
2'F-ANA at 1 4 7 8 9 11 12 14 15,62.7
2'F-ANA at 1 2 3 4 5 6 7 8 9 11,57.4
2'F-ANA at 2 5 6 10 11 13 15,49.8
2'F-ANA at 1 3 6 10 12 13 14 15,60.5
2'F-ANA at 1 4 11 14 15,55.4
2'F-ANA at 2 4 6 9 10,91.1
2'F-ANA at 1 3 7 14,97.8
2'F-ANA at 1 2 4 5 6 7 9 10 13 14 15,52.7
2'F-ANA at 6 7 12 13 14,207
2'F-ANA at 1 5 6 9 10 11 14,47.2
2'F-ANA at 1 2 4 6 9 10 12 14 15,49.3
2'F-ANA at 3 4 6 11 12 14,356
